# Assay results collected from several papers.
# Protocols differ between the studies behind these lines. ± gives the spread as reported.
# H2-K1 29: H-2 class I histocompatibility antigen, K-D alpha chain, 29 (H2-K1, Mus musculus, UniProt P01902)
# Chain of UniProt P01902 (whole entry, looked up): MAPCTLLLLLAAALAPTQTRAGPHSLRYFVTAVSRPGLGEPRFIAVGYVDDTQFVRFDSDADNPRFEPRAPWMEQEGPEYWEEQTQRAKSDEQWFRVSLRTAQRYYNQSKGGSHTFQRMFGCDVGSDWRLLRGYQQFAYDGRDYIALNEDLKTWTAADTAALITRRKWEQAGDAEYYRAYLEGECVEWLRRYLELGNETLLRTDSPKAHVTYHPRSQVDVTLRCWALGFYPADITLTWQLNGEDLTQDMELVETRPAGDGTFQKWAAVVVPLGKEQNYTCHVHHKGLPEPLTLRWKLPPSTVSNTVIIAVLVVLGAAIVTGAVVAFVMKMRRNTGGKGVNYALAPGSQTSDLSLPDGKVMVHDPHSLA
# CXCR4: C-X-C chemokine receptor type 4 (CXCR4, Homo sapiens, UniProt P61073)
# Chain of UniProt P15090 (whole entry, looked up): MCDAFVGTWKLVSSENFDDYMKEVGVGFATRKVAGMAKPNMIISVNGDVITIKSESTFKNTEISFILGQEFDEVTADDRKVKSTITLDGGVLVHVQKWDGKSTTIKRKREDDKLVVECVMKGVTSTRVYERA
# Chain of UniProt P54941 (whole entry, looked up): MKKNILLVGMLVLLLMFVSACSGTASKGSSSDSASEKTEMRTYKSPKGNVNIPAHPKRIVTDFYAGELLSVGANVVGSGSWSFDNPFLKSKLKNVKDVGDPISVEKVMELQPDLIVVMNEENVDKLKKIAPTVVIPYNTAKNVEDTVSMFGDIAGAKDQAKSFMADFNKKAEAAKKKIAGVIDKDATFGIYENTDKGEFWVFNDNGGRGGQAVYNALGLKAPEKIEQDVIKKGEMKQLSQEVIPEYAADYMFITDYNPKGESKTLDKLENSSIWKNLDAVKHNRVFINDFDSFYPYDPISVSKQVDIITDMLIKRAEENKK
# Chain of UniProt Q15116 (whole entry, looked up): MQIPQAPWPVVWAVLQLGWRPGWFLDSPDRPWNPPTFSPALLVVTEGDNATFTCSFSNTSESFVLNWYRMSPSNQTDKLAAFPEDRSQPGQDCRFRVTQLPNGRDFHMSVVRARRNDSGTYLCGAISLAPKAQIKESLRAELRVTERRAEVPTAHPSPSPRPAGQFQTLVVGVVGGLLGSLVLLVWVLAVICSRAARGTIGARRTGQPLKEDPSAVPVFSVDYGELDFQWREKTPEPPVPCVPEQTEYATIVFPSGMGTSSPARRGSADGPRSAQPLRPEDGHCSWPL
Structure (SMILES),target,test,conditions,quantity,value
CC[C@H](C)[C@H](NC(=O)[C@H](CS)NC(=O)[C@H](CC(C)C)NC(=O)[C@H](C)NC(=O)[C@H](CCC(N)=O)NC(=O)[C@H](CC(C)C)NC(=O)[C@H](CCSC)NC(=O)[C@H](Cc1ccc(O)cc1)NC(=O)[C@@H](N)CO)C(=O)O,H2-K1 29,"binding, competitor, radioligand competition","purified MHC, mutant peptide, with: radiolabeled standard peptide",IC50,82 nM
O=C(O)CCCOc1ccc(F)cc1-c1cc(-c2ccccc2C(F)(F)F)n(-c2ccccc2)n1,"Fatty acid-binding protein, adipocyte (FABP4, Homo sapiens, UniProt P15090)","ligand displacement, fluorescence",,Kd,238 nM
CC[C@H](C)[C@H](NC(=O)[C@H](CCC(=O)O)NC(=O)[C@H](CCCCN)NC(=O)[C@H](CC(C)C)NC(=O)[C@H](CCCCNC(=O)[C@H](CC(C)C)NC(=O)[C@H](CCCNC(=N)N)NC(=O)[C@H](Cc1c[nH]cn1)NC(=O)[C@H](Cc1c[nH]cn1)NC(=O)[C@H](Cc1c[nH]cn1)NC(=O)[C@@H](N)CO)NC(=O)[C@H](CC(C)C)NC(=O)[C@H](CCCNC(=N)N)NC(=O)[C@H](Cc1c[nH]cn1)NC(=O)[C@H](Cc1c[nH]cn1)NC(=O)[C@H](Cc1c[nH]cn1)NC(=O)[C@@H](N)CO)C(=O)N[C@@H](C)C(=O)N[C@@H](CC(N)=O)C(=O)N[C@@H](CO)C(=O)N1CCC[C@H]1C(=O)N[C@H](C(=O)N[C@@H](CCC(N)=O)C(=O)N[C@@H](Cc1ccccc1)C(=O)N[C@@H](Cc1c[nH]c2ccccc12)C(=O)N[C@@H](CCCNC(=N)N)C(=O)N[C@@H](CCSC)C(=O)N[C@H](C(=O)N[C@@H](C)C(=O)N[C@@H](CCCNC(=N)N)C(=O)N[C@@H](CC(N)=O)C(=O)N[C@H](C(=O)N[C@@H](CC(C)C)C(=O)NCC(=O)N[C@@H](CC(N)=O)C(=O)NCC(=O)N[C@@H](C)C(=O)N[C@@H](CCCCN)C(=O)N[C@@H](CCC(N)=O)C(=O)N[C@@H](CO)C(=O)N[C@@H](CC(C)C)C(=O)N[C@@H](CC(N)=O)C(=O)N[C@H](C(=O)N[C@@H](CCC(=O)O)C(=O)N[C@@H](Cc1c[nH]cn1)C(=O)N[C@@H](C)C(=O)O)[C@@H](C)CC)[C@@H](C)O)C(C)C)[C@@H](C)O,"Programmed cell death protein 1 (PDCD1, Homo sapiens, UniProt Q15116)","binding, SPR",pH 7.4,Kd,11.9 nM
O=C(Nn1c(-c2cccc(Cl)c2)nc2ccccc2c1=O)c1ccccc1F,"TRPM channel TRPM_PZQ (Schistosoma mansoni, UniProt A0A5K4F0X5)",,,EC50,1150 ± 110 nM
CCOc1ccccc1-c1nnc2n1N=C(c1ccc(N3CCCC3=O)cc1)CS2,CXCR4,"β-arrestin recruitment, agonist",,EC50,50 nM
O=C1CCC(=O)N([O-])CCCCCNC(=O)CCC(=O)N([O-])CCCCCNC(=O)CCC(=O)N([O-])CCCCCN1.[Fe+3],"Iron(3+)-hydroxamate-binding protein YxeB (yxeB, Bacillus subtilis, UniProt P54941)","binding, Trp fluorescence quenching","pH 7.4, with: yxeB 100 nM",Kd,30 ± 9 nM
CSCC[C@H](NC(=O)[C@H](Cc1ccc(O)cc1)NC(=O)[C@@H](N)CO)C(=O)N[C@@H](CC(C)C)C(=O)N[C@@H](CCC(N)=O)C(=O)N[C@@H](C)C(=O)N[C@@H](CC(C)C)C(=O)N[C@@H](CS)C(=O)O,H2-K1 29,"binding, competitor, radioligand competition","purified MHC, mutant peptide, with: radiolabeled standard peptide",IC50,14900 nM
COc1ccccc1-c1nnc2n1N=C(c1ccc(N3CCOCC3)cc1)CS2,CXCR4,"β-arrestin recruitment, agonist",,EC50,7810 nM
OC[C@H]1[C@@H](O)[C@@H](O)CN1Cc1ccc(I)cc1,"Golgi alpha-mannosidase IIb (Drosophila melanogaster, UniProt Q9VF33)",Dixon plot,with: pNP-Man 0.5 to 4 mM,Ki,50000 nM

# A few entries again:
Structure (SMILES),target,test,conditions,quantity,value
O=C(O)CCCOc1ccc(F)cc1-c1cc(-c2ccccc2C(F)(F)F)n(-c2ccccc2)n1,"Fatty acid-binding protein, adipocyte (FABP4, Homo sapiens, UniProt P15090)","ligand displacement, fluorescence",,Kd,238 nM
